Measured values of several laboratories.
Each line is one published result; not all experiments were run side by side. Several values in a cell are separate wells, animals, samples, runs or records. ± marks the error that the study gave.

COc1ncc(F)cc1CNc1ccc(Cc2c[nH]c3ncc(C)cc23)c(F)n1
CC50 (human cells): > 20 µM

Oc1ccc(C(c2ccc(O)cc2)(C(F)(F)F)C(F)(F)F)cc1
necrotic cells (HepG2 spheroids; annexin V-FITC/PI flow cytometry; 10 µM, 96 h): 39.4 ± 14.1%

COC(=O)c1ccc(NC(=O)CCSc2nc(C)cc(C)c2C#N)cc1
viability (MDA-MB-231; MTT; 100 µM, 72 h): 38 ± 3%

O=c1cc(-c2ccc(O)cc2)oc2c([C@@H]3O[C@H](CO)[C@@H](O)[C@H](O)[C@H]3O)c(O)cc(O)c12
viability (Caco-2; CCK-8; 1.25 µM, 24 h): 132%

Cc1ccc(Nc2ccnc(N3CCC(C(=O)NCCCc4ccccc4)CC3)n2)cc1
AC50 (Vero E6, no virus; cytotoxicity, CellTiter-Glo): 11.2 µM

Cc1cc(-c2ccccc2)nc2sc(C(=O)NCc3ccccc3)c(N)c12
viability (MDA-MB-231; MTT; 100 µM, 72 h): 49 ± 2%

CC(C)C[C@@H](NC(=O)[C@H](C)NC(=O)CNC(=O)[C@@H](NC=O)C(C)C)C(=O)N[C@@H](C)C(=O)N[C@@H](C(=O)N[C@H](C(=O)N[C@@H](C(=O)N[C@@H](Cc1c[nH]c2ccccc12)C(=O)N[C@H](CC(C)C)C(=O)N[C@@H](Cc1ccc2[nH]ccc2c1)C(=O)N[C@H](CC(C)C)C(=O)N[C@@H](Cc1c[nH]c2ccccc12)C(=O)N[C@H](CC(C)C)C(=O)N[C@@H](Cc1c[nH]c2ccccc12)C(=O)NCCO)C(C)C)C(C)C)C(C)C
IC50 (P388 (mouse); cytotoxicity, WST-1; 92 h): 0.00391 ± 0.00083 µM

COc1cc2c(Oc3ccc4[nH]c(C)cc4c3F)ccnc2cc1OCC1(N)CC1
grade 1 or 2 Leukopenia (paediatric recurrent refractory sarcoma; 12 mg): 36.4%

CO[C@H]1C[C@@H]2CC[C@@H](C)[C@@](O)(O2)C(=O)C(=O)N2CCCC[C@H]2C(=O)O[C@H]([C@H](C)C[C@@H]2CC[C@@H](OC(=O)NCCOCCOCCOCCOCCOCCOCCOCCOCCC(=O)N3CCc4cc(Cn5nc(-c6ccc7oc(N)nc7c6)c6c(N)ncnc65)ccc4C3)[C@H](OC)C2)C[C@@H](O)[C@H](C)/C=C(\C)[C@@H](O)[C@@H](OC)C(=O)[C@H](C)C[C@H](C)/C=C/C=C/C=C/1C
TRAE incidence (phase 1 dose escalation, refers to: fatigue; advanced solid tumour patients; intravenous, 8 mg weekly, grade ≥3): 0%

CC(C)CC(=O)OC[C@H]1O[C@@](C#N)(c2ccc3c(N)ncnn23)[C@H](O)[C@@H]1O
recovery (Caco-2; bidirectional permeability; 0.9 µM, 120 min; basolateral to apical): 99.5%

CC(C)[C@H]1C(=O)N[C@@H](CCCN=C(N)N)C(=O)NCC(=O)N[C@@H](CC(=O)O)C(=O)N[C@H](Cc2ccccc2)C(=O)N1C
Papp B to A (Caco-2; 20 µM): 0.0745 ×10⁻⁶ cm/s

COc1ccc(CC(=O)Nc2nc3c(s2)CCc2ccccc2-3)cc1OC
CC50 (human cells): > 20 µM

Cc1cc(-c2ccccc2)c(C#N)c(SCC(=O)Nc2ccon2)n1
viability (MDA-MB-231; MTT; 100 µM, 72 h): 19 ± 2%

CC[C@@H]1NC(=O)[C@H]([C@@H](C)CC)NC(=O)[C@H](CC(C)C)NC(=O)[C@@H]2CCCN2C(=O)[C@@H](CC(C)C)NC(=O)[C@H]2CCCN2C(=O)[C@@H](Cc2ccc(O)cc2)NC(=O)CSC[C@@H](C(=O)O)NC(=O)[C@H]([C@@H](C)O)NC(=O)[C@H]([C@@H](C)CC)NC(=O)[C@H](C)NC1=O
Papp A to B (MDCK-MDR1; HBSS, 0.25% BSA; 2 h): 2.61 ×10⁻⁶ cm/s

CC[C@H](C)CCCCC(=O)N[C@@H](CCN)C(=O)N[C@H](C(=O)N[C@@H](CCN)C(=O)N[C@H]1CCNC(=O)[C@H]([C@@H](C)O)NC(=O)[C@H](CCN)NC(=O)[C@H](CCN)NC(=O)[C@H](CC(C)C)NC(=O)[C@@H](CC(C)C)NC(=O)[C@H](CCN)NC1=O)[C@@H](C)O
drug remaining in donor (Calu-3 monolayer; LC-MS/MS; 500 µg/mL, 4 h): > 90%

O=C(Nc1cnccc1Cl)N1CCN(Cc2ccc3c(c2)OC(F)(F)O3)CC1
concentration (COS cells expressing human FAAH; COS cell culture supernatant; 100 nM, 3 h): 105 ± 3.9 nM

CCN(CC)CCCC(C)Nc1ccnc2cc(Cl)ccc12 (stereo not shown)
intracellular fraction (Vero E6; with: verapamil): 0.602

CC(C)=CCc1c(O)ccc(C(=O)/C=C/c2ccc(O)cc2)c1O
cytotoxicity (Vero E6; 25 µM): 0%

N=C(N)NN=C(C=Cc1ccc([N+](=O)[O-])o1)C=Cc1ccc([N+](=O)[O-])o1
ATP level reduction (ARPE-19 HiBiT-fibulin-3 knock-in; cell viability, CellTiter-Glo; 1.66 µM, 48 h; baseline: vehicle): 7.42%

CC(c1ccccc1)(c1ccc(O)cc1)c1ccc(O)cc1
necrotic cells (HepG2 spheroids; annexin V-FITC/PI flow cytometry; 40 µM, 24 h): 6.74 ± 2.33%

COc1ccc(C(C)(C)c2cnc(SCCOc3ccc(-n4ccnc4)cc3)n2-c2ccc(F)cc2)cc1OC
EC50 (sandwich-cultured human hepatocytes; gene induction, inducer, refers to: CYP2B6 mRNA; 48 h): 2.1 µM

COc1ccc(C[C@@H]2c3cc(Oc4cc(C[C@@H]5c6cc(O)c(OC)cc6CCN5C)ccc4O)c(OC)cc3CCN2C)cc1
cytotoxicity (Vero E6; 50 µM): 0%

O=c1ccc2ccccc2o1
chance response (NHEK; cell count; concentration not given, 24 h, HIF1alpha, inflammation, pH panel): 0.01%

CC[C@H](C)[C@@H]1NC(=O)[C@H](CO)NC(=O)[C@H](CC(C)C)NC(=O)[C@H](CC(C)C)N(C)C(=O)[C@@H](Cc2ccc(O)cc2)NC(=O)[C@@H](Cc2ccc(O)cc2)NC(=O)CSC[C@@H](C(=O)O)NC(=O)CNC(=O)[C@@H](C(C)C)NC(=O)[C@H]2CCCN2C(=O)[C@H](C)NC1=O
Papp A to B (MDCK-MDR1; HBSS, 0.25% BSA; 2 h): 0.3 ×10⁻⁶ cm/s

O=C(Nc1cnccc1Cl)N1CCN(Cc2ccc3c(c2)OC(F)(F)O3)CC1
supernatant concentration (COS cells expressing human FAAH; 100 nM, 1 h): 90.1 ± 2.7 nM

Cc1cc(-c2ccccc2)c(C#N)c(SCC(=O)Nc2nccs2)n1
viability (MDA-MB-231; MTT; 100 µM, 72 h): 44 ± 5%

C[C@@H]1O[C@@H](OC[C@H]2O[C@@H](Oc3c(-c4ccc(O)c(O)c4)oc4cc(O)cc(O)c4c3=O)[C@H](O)[C@@H](O)[C@@H]2O)[C@H](O)[C@H](O)[C@H]1O
viability (Caco-2; CCK-8; 1.25 µM, 24 h): 95.7%

COCCOCCOCCNC(=O)CSc1nc(C)cc(C)c1C#N
viability (MDA-MB-231; MTT; 100 µM, 72 h): 77 ± 2%

CC(C)C[C@H]1C(=O)N[C@@H](C(C)C)C(=O)N[C@@H](Cc2ccccc2)C(=O)N[C@H](CC(=O)O)C(=O)N2CCC[C@@H]2C(=O)N[C@H](CCC(=O)O)C(=O)N[C@H](C(=O)O)CSSC[C@@H](N)C(=O)N[C@@H](CCC(=O)O)C(=O)N2CCC[C@H]2C(=O)N1C
Papp A to B (MDCK-MDR1; HBSS, 0.25% BSA; 2 h): 0.07 ×10⁻⁶ cm/s

O=C(Nc1ccc(OC(F)(F)F)cc1)c1sccc1NCc1ccnc2ccccc12
CC50 (human cells): 4.6 µM

O=NN1CC2CC(C1)c1cc3nccnc3cc12
relative survival (TK6 expressing CYP3A4; 25 µM, 4 h, without S9; baseline: vehicle): 81.7%

O=C(/C=C/c1ccc(O)c(O)c1/C=C/c1ccc(O)c(O)c1)O[C@H](Cc1ccc(O)c(O)c1)C(=O)O
cytotoxicity (Vero E6; 50 µM): 0%

COc1cc(CNC(=O)c2sc3nc(-c4ccccc4)cc(C(F)(F)F)c3c2N)cc(OC)c1OC
viability (MDA-MB-231; MTT; 100 µM, 72 h): 35 ± 4%

O=S(=O)(c1ccc(O)cc1)c1ccc(O)cc1
necrotic cells (HepG2 spheroids; annexin V-FITC/PI flow cytometry; 10 µM, 24 h): 8.8 ± 2.43%

CCSc1nc2ccccc2n1Cc1nnc(-c2ccc(OC)cc2)o1
viability (neutrophils; fresh heparinized human blood; 200 µg/mL, 30 min): 69.5 ± 4%

CN(C(=O)n1cnc(-c2ccc[n+]([O-])c2)c1)C1CCCCC1
concentration (COS cells expressing human FAAH; COS cell culture supernatant; 100 nM, 24 h): 101 ± 1.1 nM

CC[C@@H](C)[C@H]1O[C@@H](c2c(O)c(-c3ccccc3)cn(OC)c2=O)[C@H](C)C[C@@H]1C
IC50 (LLC-PK1; cytotoxicity, neutral red uptake; 48 h): > 10 µg/mL

Cc1cc(C)c(C#N)c(SCC(=O)Nc2cccnc2)n1
viability (MDA-MB-231; MTT; 100 µM, 72 h): 77 ± 6%

O=c1[nH]c2ccccc2s1
IC10 (HEK293H PPARγ-UAS-bla; cytotoxicity; freely dissolved concentration): 982 µM

CC[C@H](C)[C@H]1C(=O)N[C@@H](Cc2ccc(O)cc2)C(=O)N2CCC[C@H]2C(=O)N[C@H]([C@H](C)O)C(=O)N[C@@H](CC(C)C)C(=O)N[C@@H](C(C)C)C(=O)N[C@@H](C)C(=O)N[C@@H](C)C(=O)N[C@@H](CO)C(=O)N[C@@H](CCC(=O)O)C(=O)N[C@H](CC(=O)O)C(=O)N[C@H](C(=O)O)CSSC[C@H](N)C(=O)N1C
Papp A to B (MDCK-MDR1; HBSS, 0.25% BSA; 2 h): 1.73 ×10⁻⁶ cm/s

Oc1ccc(C2(c3ccc(O)cc3)c3ccccc3-c3ccccc32)cc1
necrotic cells (HepG2 spheroids; annexin V-FITC/PI flow cytometry; 1 µM, 24 h): 4.02 ± 0.91%

CC[C@H](C)[C@H]1C(=O)N[C@@H]([C@@H](C)O)C(=O)N[C@@H](C)C(=O)N[C@@H](Cc2ccccc2)C(=O)N[C@@H](CC(C)C)C(=O)NCC(=O)N[C@@H](CC(C)C)C(=O)N2CCC[C@@H]2C(=O)N[C@H](Cc2ccc(O)cc2)C(=O)N2CCC[C@H]2C(=O)NCC(=O)N[C@@H](CCCNC(=N)N)C(=O)N1C
Papp A to B (MDCK-MDR1; HBSS, 0.25% BSA; 2 h): 0.07 ×10⁻⁶ cm/s

O=C(Nc1cccnn1)N1CCC(=Cc2cccc(Oc3ccc(C(F)(F)F)cn3)c2)CC1
supernatant concentration (COS cells expressing human FAAH; 100 nM, 1 h): 72.6 ± 4.4 nM

CC(C)c1ccc(C(=O)c2c(N)c(C(N)=O)c3ccccn23)cc1
viability (THP-1-derived macrophages; 10 µM, 24 h): 95.5% and 100%

CC(C)(c1ccc(O)cc1)c1ccc(O)cc1
late apoptotic cells (HepG2 spheroids; annexin V-FITC/PI flow cytometry; 1 µM, 96 h): 16.3 ± 3.47%

O=C(Nc1cccnn1)N1CCC(=Cc2cccc(Oc3ccc(C(F)(F)F)cn3)c2)CC1
concentration (COS cells expressing human FAAH; COS cell culture supernatant; 100 nM, 1 h): 72.6 ± 4.4 nM

COC(=O)CNC(=O)CSc1nc(C)cc(C)c1C#N
viability (MDA-MB-231; MTT; 100 µM, 72 h): 78 ± 3%

C=C[C@@](C)(/C=C/c1ccc(O)cc1)CCC=C(C)C
cytotoxicity (Vero E6; 6.25 µM): 0%

CC(C)C[C@@H](C=O)NC(=O)[C@H](CC(C)C)NC(=O)[C@H](CC(C)C)NC(=O)OCc1ccccc1
ATP level reduction (ARPE-19 HiBiT-fibulin-3 knock-in; cell viability, CellTiter-Glo; 1.66 µM, 48 h; baseline: vehicle): -2.25%

Repeated from above:
COc1ccc(CC(=O)Nc2nc3c(s2)CCc2ccccc2-3)cc1OC
CC50 (human cells): > 20 µM

O=C(Nc1cnccc1Cl)N1CCN(Cc2ccc3c(c2)OC(F)(F)O3)CC1
concentration (COS cells expressing human FAAH; COS cell culture supernatant; 100 nM, 3 h): 105 ± 3.9 nM

CC[C@H](C)[C@H]1C(=O)N[C@@H]([C@@H](C)O)C(=O)N[C@@H](C)C(=O)N[C@@H](Cc2ccccc2)C(=O)N[C@@H](CC(C)C)C(=O)NCC(=O)N[C@@H](CC(C)C)C(=O)N2CCC[C@@H]2C(=O)N[C@H](Cc2ccc(O)cc2)C(=O)N2CCC[C@H]2C(=O)NCC(=O)N[C@@H](CCCNC(=N)N)C(=O)N1C
Papp A to B (MDCK-MDR1; HBSS, 0.25% BSA; 2 h): 0.07 ×10⁻⁶ cm/s

CC[C@H](C)[C@@H]1NC(=O)[C@H](CO)NC(=O)[C@H](CC(C)C)NC(=O)[C@H](CC(C)C)N(C)C(=O)[C@@H](Cc2ccc(O)cc2)NC(=O)[C@@H](Cc2ccc(O)cc2)NC(=O)CSC[C@@H](C(=O)O)NC(=O)CNC(=O)[C@@H](C(C)C)NC(=O)[C@H]2CCCN2C(=O)[C@H](C)NC1=O
Papp A to B (MDCK-MDR1; HBSS, 0.25% BSA; 2 h): 0.3 ×10⁻⁶ cm/s

CC(C)[C@H]1C(=O)N[C@@H](CCCN=C(N)N)C(=O)NCC(=O)N[C@@H](CC(=O)O)C(=O)N[C@H](Cc2ccccc2)C(=O)N1C
Papp B to A (Caco-2; 20 µM): 0.0745 ×10⁻⁶ cm/s

CC(C)C[C@H]1C(=O)N[C@@H](C(C)C)C(=O)N[C@@H](Cc2ccccc2)C(=O)N[C@H](CC(=O)O)C(=O)N2CCC[C@@H]2C(=O)N[C@H](CCC(=O)O)C(=O)N[C@H](C(=O)O)CSSC[C@@H](N)C(=O)N[C@@H](CCC(=O)O)C(=O)N2CCC[C@H]2C(=O)N1C
Papp A to B (MDCK-MDR1; HBSS, 0.25% BSA; 2 h): 0.07 ×10⁻⁶ cm/s

Cc1cc(C)c(C#N)c(SCC(=O)Nc2cccnc2)n1
viability (MDA-MB-231; MTT; 100 µM, 72 h): 77 ± 6%
